Published values of several laboratories.
± marks the error that the study gave.

`Cc1cc2c(c(=O)o1)C=C1CCC(C(C)CNCc3ccc(O)cc3)CC1O2` (centres unmarked) gave a brain concentration of 5.95 ± 0.66 µM (HPLC-MS; wild-type mice; oral in drinking water, dose not given, two months).
Under “brain concentration ratio”, `COc1cc2c(cc1OC)CC(=O)N(C[C@H]1CCCN(CCOc3ccc(F)cc3)C1)CC2` is recorded as > 1 (C57BL/6 mice, brain; intraperitoneal, 20 mg/kg, 15 min; reference: compound over cilobradine).
For `CC12CC(O)C3CC1(OC1OC(CO)C(O)C(O)C1O)C3(COC(=O)c1ccccc1)C(=O)O2` (centres unmarked), brain level read “not detected” (ICR mice; oral, 14 mg/kg, 2 h).
Under “brain uptake change”, `O=[11C](N1CCC(CNS(=O)(=O)c2ccc(Cl)cc2)CC1)n1cncn1` is recorded as ~10% (PET; PgP/Bcrp knockout mice, brain; dose not given; reference: wild-type mice).
`COc1ccc(OC)c(C(=Cc2ccc(O)c(OC)c2)C(=O)NCCc2ccc(O)cc2)c1`: brain concentration “decreased” (C57BL mice, pseudo-germ-free, brain; oral, 75 mg/kg, 8 weeks; reference: control mice).
`CC(C)CCN(c1nc(C#N)nc(NC2COC2)n1)C(C)c1ccc(F)cc1` (centres unmarked) gave a brain concentration of 13.8 ng/g (female CD-1 mice; intraperitoneal, 10 mg/kg, 7 h).
Under brain concentration, `COc1ccc(OC)c(/C(=C\c2ccc(O)c(O)c2)C(=O)NCCc2ccc(O)cc2)c1` is recorded as “decreased” (C57BL mice, pseudo-germ-free, brain; oral, 75 mg/kg of FLZ, 8 weeks; reference: control mice).
With `CC(C)CCN(Cc1ccc(F)cc1)c1nc(C#N)nc(N2CCOCC2)n1` the brain concentration was 16.1 ng/g (female CD-1 mice; intraperitoneal, 10 mg/kg, 2 h).
`COc1cc2c(cc1OC)CN(CCCCn1ccc3cc(OCC[18F])ccc31)C2` has a brain uptake of 1.58 ± 0.16 %ID/g (male ICR mice; intravenous, 120 min post-injection).
The brain concentration of `N#Cc1nc(N2CCOCC2)nc(N(Cc2ccc(F)cc2)CC2CCCNC2)n1` (centres unmarked) is reported as 32 ng/g (female CD-1 mice; intraperitoneal, 10 mg/kg, 2 h).
For `CNC(=O)c1ncn2c(=O)n(C)nnc12`, “brain to serum ratio” read > 3 fold (CD-1 IGS mice, brain and serum; intravenous, 25 mg/kg, 5 min; reference: temozolomide).

For quick reference, copied from above:
Under “brain concentration ratio”, `COc1cc2c(cc1OC)CC(=O)N(C[C@H]1CCCN(CCOc3ccc(F)cc3)C1)CC2` is recorded as > 1 (C57BL/6 mice, brain; intraperitoneal, 20 mg/kg, 15 min; reference: compound over cilobradine).
The brain concentration of `N#Cc1nc(N2CCOCC2)nc(N(Cc2ccc(F)cc2)CC2CCCNC2)n1` (centres unmarked) is reported as 32 ng/g (female CD-1 mice; intraperitoneal, 10 mg/kg, 2 h).
